Published values gathered from unrelated publications.
Parts stem from different laboratories: compare values within a part only.

Block 1
Target: RNA binding protein fox-1 homolog 2, RRM domain, GST-SBP tag (RBFOX2, Homo sapiens, UniProt O43251-10, residues 100-194)
Technique: RNA Bind-n-Seq
Form: RNA
Sample: in vitro
Concentration: 365 nM
Setting: natural RNA segment, single round, ends assumed
Reference: no-protein control
Direction: higher = stronger binding
Measurement: RBNS enrichment (R)
Residues (chain): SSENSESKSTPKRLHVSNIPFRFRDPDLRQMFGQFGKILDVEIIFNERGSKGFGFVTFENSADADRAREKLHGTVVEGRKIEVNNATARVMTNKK
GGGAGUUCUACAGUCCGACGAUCAAGGCCACACCACUUCCGCUGUGUAUCAGUCUAUCAUACACUCCGCACGGUCACAUGAUCACUUCACUUCUCGAUGGCUAUUGCAGACCAAGACUGCAGUCAAGAAGGGAUGGAAUUCUCGGGUGCCAA: 0.282
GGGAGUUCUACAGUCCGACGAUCAUGUCAUAUUAUUUUGAAAGUACAAAAUAUACUAAAAGAGUGUGUGUGUAUUCACGCAGUUACUCGCUUCCAUUUUUAUGACCUUUCAACUAUAGGUAAUAACUCUUAGAUGGAAUUCUCGGGUGCCAA: 0.28
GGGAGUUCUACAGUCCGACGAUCUUUAUUUUUAGAUAGGGUUUCAGGUAGAUCUGCAGGCCUUGACCUUACUAUAUAGUUGAAGAUGGCCUUGACCUCCUGACCCCUGCCUCAGCCAUGCCUGGCUAGGACAGUGGAAUUCUCGGGUGCCAA: 0.357
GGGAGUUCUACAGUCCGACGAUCGUGGCUGGGGCCUGACACUGAGCUGUAGGGAAACUGAACUGUGAGGACCUCUGGUGAGAGGCCAGUGCCCUGCCCCACCCUGGAGCUUCAAAUAAAGAGCUUUUUACCCCUGGAAUUCUCGGGUGCCAA: 0.302
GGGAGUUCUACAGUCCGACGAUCGGGUUUGGGCUAAGAUCUAAGACCCAGCAGAUAGGAGACAGCAGGUACCACCCACACAGCACAGCUCUUCAUUCACAGUCAAGAGUUUAGACUGCUCCAGCUGGGACAUCUGGAAUUCUCGGGUGCCAA: 0.256
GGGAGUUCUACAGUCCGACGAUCUGUCCCUUUUUGGUUUCUGGAAAGAUUCUUUGUCAACAUUAGUAACUGAUACAUAGAACCAAGGAGCACUCAAAUAGGGAGCCAGGAGCCAGGGAGCUGGUGACACUUGUUGGAAUUCUCGGGUGCCAA: 0.362
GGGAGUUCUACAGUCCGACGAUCAAUAUGUCACAUCUGAGUUCAAAAAAAUUACUUUGAAUACCUUAAUAUUUGCUGCAUUUUUUUCCGUAUAUAUAACAUGUCUUCUUUCAGAAUGGGAAUAUAUGUGUGCCUGGAAUUCUCGGGUGCCAA: 0.554
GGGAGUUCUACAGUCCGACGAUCCGCAUGCCUGGGCCCUGCUGGGCUCUCCCACUCCAGGCGGACCCUGGGGGCCAGUGAAGGAAGCUCCCGGAAAGAGCAGAGGGAGAGCGGGUAGGCGGCUGUGUGACUCUUGGAAUUCUCGGGUGCCAA: 1.19
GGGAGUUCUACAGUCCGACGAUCUGACCCCCGCCCUGUCCCUUUCAGUUUUGUCUGGGAGGGAGCACUAAAGCCUUUCCAGAGACUAUGCUAGAUACCACAGGCCCUGCCACCAUGGGCUGUGUAACCAGGCUUGGAAUUCUCGGGUGCCAA: 0.393
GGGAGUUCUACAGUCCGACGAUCAAAUUGCACCACACAAGUAGCAGUUCAUAAGAAUAAAAUGUGCUUAUUUUACGCAUGGUCCAUAAAAUGAUUUGAUACUCUUUUAAAGUGUAUGUGGUCCAUUAGAAAGGUGGAAUUCUCGGGUGCCAA: 0.84

Block 2
Target: Prothrombin, mature alpha-thrombin (F2, Homo sapiens, UniProt P00734)
Technique: aptamer microarray, sandwich
Form: DNA with 2'F-ANA
Sample: in vitro
Concentration: 200 nM
Setting: whole 15-mer aptamer, many near background
With: Cy3 exosite-II aptamer, 400 nM
Direction: higher = stronger binding
Measurement: mean fluorescence intensity
Oligonucleotide: GGTTGGTGTGGTTGG
2'F-ANA at 3 4 6 7 8 10 11 13 14: 164 a.u.
2'F-ANA at 1 3 4 5 10 12 14 15: 64.5 a.u.
2'F-ANA at 2 4 6 7 8 9 10 13 14: 61.1 a.u.
2'F-ANA at 2 3 5 6 7 10 11 13 15: 54.2 a.u.
2'F-ANA at 2 5 6 7 8 10 11 13: 47.8 a.u.
2'F-ANA at 1 2 4 6 7 10 13 14 15: 48.1 a.u.
2'F-ANA at 1 3 4 6 9 10 11 12 13: 78.8 a.u.
2'F-ANA at 2 4 5 7 8 9 12 15: 148 a.u.

Block 3
Target: PABPC1L2, full length, GST fusion (mouse, UniProt A0ABA7IW68)
Technique: RNAcompete
Form: RNA
Sample: in vitro
Concentration: 20 nM
Setting: 7-mer, probes averaged, single round
Reference: mean of 7-mers
Direction: higher = stronger binding
Measurement: 7-mer Z-score
Target sequence (chain): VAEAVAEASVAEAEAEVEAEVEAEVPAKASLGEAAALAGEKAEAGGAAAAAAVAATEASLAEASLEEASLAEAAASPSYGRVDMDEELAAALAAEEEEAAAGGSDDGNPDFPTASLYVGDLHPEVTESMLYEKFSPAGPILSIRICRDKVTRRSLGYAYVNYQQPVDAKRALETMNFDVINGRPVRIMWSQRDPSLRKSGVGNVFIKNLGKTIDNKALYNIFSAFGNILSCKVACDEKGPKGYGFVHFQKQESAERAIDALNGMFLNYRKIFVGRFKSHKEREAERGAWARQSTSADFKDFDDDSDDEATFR
UUCUCGA: -0.354
GGCCCUU: -0.153
UUAGCAU: -0.18
GAGAACC: 0.0116
ACUGUAC: -0.166
AGCCAGA: 0.0678
CCGUGAA: 0.0352
ACUUGAA: 0.0732
CGUCGGA: -0.258

Mixed results
PhoQ, residues 284 288 289 292 302 303 SCCLKL  fold induction (PhoP, residues 12 14 15 18 19 NFCKL (Escherichia coli, UniProt P23836); Sort-seq, refers to: YFP reporter; E. coli; PhoQ-PhoP variant library, with: 10 µM Mg2+; reference: high Mg2+ state, higher = stronger signaling): 10.7

Some of these lines once more (block 2):
2'F-ANA at 2 3 5 6 7 10 11 13 15: 54.2 a.u.
2'F-ANA at 2 5 6 7 8 10 11 13: 47.8 a.u.
2'F-ANA at 1 2 4 6 7 10 13 14 15: 48.1 a.u.
2'F-ANA at 1 3 4 6 9 10 11 12 13: 78.8 a.u.
